Measured values of several laboratories.
Values joined by “and” are separate records of one study, mostly repeats; a detail may differ.
Target: NT-3 growth factor receptor (NTRK3, Homo sapiens, UniProt Q16288)

`COc1c(Cl)cccc1Nc1c(-c2ccncc2C#C[C@@]2(C)CCCN2C(=O)/C=C/CN(C)C)[nH]c2c1C(=O)NCC2` gave a remaining binding of 69% (cell-free assay, competition with immobilised ligand; 3 µM).
`O=C(Nc1ccc(C(=O)Nc2ccc3[nH]ncc3c2)cc1F)Nc1cc(C(F)(F)F)ccc1F` gave an inhibition of 29.2% (enzyme activity, inhibitor, FRET; 1 µM).
`COc1ccc(S(=O)(=O)N2CCc3ccccc3C2)cc1N1CCN(C(=O)c2ccc(F)cc2C(F)(F)F)CC1` gave an inhibition of -15.8% (enzyme activity, inhibitor; 1 µM).
`O=C(Nc1cc(C(F)(F)F)ccc1F)Nc1ccc(C(=O)Nc2ccc3[nH]ncc3c2)cc1C(F)(F)F` has an inhibition of 29.7% (enzyme activity, inhibitor, FRET; 1 µM).
`Cc1cccc(O[C@H]2CCC[C@@H](C(C)CNCc3ccncc3)C2)c1` (relative stereo) gave an inhibition of 0% (cell-free assay; 1 µM).
`COCC12C(=O)NC3C4(C(OC)CC1O)C1CC5(O)C(OC)C(O)C(OC(C)=O)(C1C5OC(=O)c1ccccc1)C3(O)C(OC)C24` (centres unmarked) has a remaining activity of 117% and 112% (kinase activity, inhibitor, ProQinase kinase profiling; 25 µM; relative to: control).
`Nc1ncc(-c2cc(-c3cnn(CC(F)(F)F)c3)ncc2F)nc1C(=O)NC1CNCC(F)C1` (centres unmarked) has a remaining activity of 47.4% (enzyme activity; 1 µM; relative to: DMSO control).
`CC(C)=CC1OC(C)(C)C2C=C3C(=O)C(Cl)=CC(O)C3C3C(O)C4OC4C(=O)C132` (centres unmarked) gave a remaining binding of 69% (cell-free assay, competition with immobilised ligand; 10 µM).
`C=CC(=O)Nc1cccc(-c2cnc3[nH]cc(C(=O)NC(C)(C)C)c3n2)c1` gave an inhibition of -15% and -3% (kinase activity; 0.1 µM).
The remaining binding of `CNC1C[S+]2CC[S+]3CC[S+](C1)[Ru-4]321([N]=C=S)[n]2c3ccc(OC)cc3c3c4c(c5cc(F)c[n+]1c5c32)C(=O)NC4=O` (centres unmarked) is reported as 99% (KinomeScan; 0.1 µM; relative to: untreated).
With `CCN1CCN(Cc2ccc(C(=O)Nc3ccc(C)c(NCc4cnc5[nH]ccc5c4OC)c3)cc2C(F)(F)F)CC1` the remaining binding was 21% (binding, competition with immobilised ligand; 1 µM).
With `CCN1CCN(Cc2ccc(NC(=O)c3ccc(C)c(NC(=O)c4cncc(-c5cnn(C)c5)c4)c3)cc2C(F)(F)F)CC1` the remaining binding was 6.6% (binding, competition with immobilised ligand; 1 µM).
`COc1cc(NC(=O)Nc2cc(C(F)(F)F)ccc2F)ccc1C(=O)Nc1ccc2[nH]ncc2c1` gave an inhibition of 15.3% (enzyme activity, inhibitor, FRET; 1 µM).
For `NC(=O)C[C@H]1CCc2sc3ncnc(O[C@H]4CC[C@H](N5CCOCC5)CC4)c3c21`, the inhibition was 39% (enzyme activity, inhibitor; 10 µM).
With `O=C(Nc1ccc(C(=O)Nc2ccc3[nH]ncc3c2)c(Br)c1)Nc1cc(C(F)(F)F)ccc1F` the inhibition was 27.4% (enzyme activity, inhibitor, FRET; 1 µM).
With `CN1CCN(Cc2ccc(-c3ccc(CO[C@H]4CCC[C@@H]4NC(=O)c4cc(-c5cnn(C)c5)cnc4N)cc3)cc2)CC1` the inhibition was 1% (enzyme activity, inhibitor; 0.1 µM).
`O=C(CN1CCN(C(=O)c2ccc(F)cc2)CC1)Nc1cccc(C(=O)Nc2ccc3[nH]ncc3c2)c1` has an inhibition of 10.7% (enzyme activity, inhibitor, FRET; 1 µM).
Under “activity vs control”, `CNC(=O)C[C@H](Cc1ccc(C#N)cc1)NC(=O)c1cc(-c2ccc(CN[C@H](C)c3ccc(C)cc3)o2)ccc1Cl` is recorded as 91% (enzyme activity, inhibitor; 1 µM).
`O=C(Nc1cc(C(=O)Nc2ccc3[nH]ncc3c2)ccc1F)Nc1cc(C(F)(F)F)ccc1F` gave an inhibition of 24.8% (enzyme activity, inhibitor, FRET; 1 µM).
`COc1cc(Nc2nccc(-c3cnn4nc(OC)ccc34)n2)cc(C(F)(F)F)c1` gave a remaining binding of 73% (binding, competition with immobilised ligand; 1 µM).

Repeated from above:
`O=C(Nc1cc(C(F)(F)F)ccc1F)Nc1ccc(C(=O)Nc2ccc3[nH]ncc3c2)cc1C(F)(F)F` has an inhibition of 29.7% (enzyme activity, inhibitor, FRET; 1 µM).
